Published values from different studies.
Parts stem from different laboratories: compare values within a part only. “And” joins repeats or separate records; there may be more than shown.
Sequence of UniProt P46734 (whole entry, looked up): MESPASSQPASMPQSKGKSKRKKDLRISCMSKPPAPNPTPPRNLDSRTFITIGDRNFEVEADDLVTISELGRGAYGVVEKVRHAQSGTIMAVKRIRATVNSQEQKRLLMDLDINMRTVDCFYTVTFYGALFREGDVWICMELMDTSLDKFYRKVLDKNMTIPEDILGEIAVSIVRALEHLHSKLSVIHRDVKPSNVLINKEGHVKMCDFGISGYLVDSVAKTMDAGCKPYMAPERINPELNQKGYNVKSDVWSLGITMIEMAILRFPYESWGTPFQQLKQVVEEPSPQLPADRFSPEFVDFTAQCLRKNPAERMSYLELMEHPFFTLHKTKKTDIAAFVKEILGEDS
Sequence of UniProt Q96RR4 (whole entry, looked up): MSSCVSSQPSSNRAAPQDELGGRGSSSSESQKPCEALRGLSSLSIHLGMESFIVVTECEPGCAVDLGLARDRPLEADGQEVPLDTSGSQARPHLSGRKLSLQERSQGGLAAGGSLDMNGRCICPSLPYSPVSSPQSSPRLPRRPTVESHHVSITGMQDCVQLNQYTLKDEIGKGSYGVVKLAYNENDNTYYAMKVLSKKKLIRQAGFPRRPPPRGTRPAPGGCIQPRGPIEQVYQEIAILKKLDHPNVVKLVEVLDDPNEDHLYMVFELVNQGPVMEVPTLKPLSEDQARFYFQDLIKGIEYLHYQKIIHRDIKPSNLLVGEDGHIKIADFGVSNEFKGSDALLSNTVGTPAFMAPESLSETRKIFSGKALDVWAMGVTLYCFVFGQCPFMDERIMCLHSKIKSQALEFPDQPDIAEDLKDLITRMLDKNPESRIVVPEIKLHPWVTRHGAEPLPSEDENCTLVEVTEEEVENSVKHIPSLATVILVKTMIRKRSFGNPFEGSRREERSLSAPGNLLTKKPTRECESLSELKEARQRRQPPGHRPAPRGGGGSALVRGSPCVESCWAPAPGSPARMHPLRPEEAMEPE

Study 1
SMILES: O=C(NCCCC1CCCCC1)c1ccc(CNC(=O)c2cnn(-c3ccccc3)c2C(F)(F)F)cc1
Effect on: cell-free assay
Technique: competition with immobilised ligand
Tested at: 0.1 µM
target	remaining binding
Ribosomal protein S6 kinase alpha-5, C-terminal kinase domain (RPS6KA5, Homo sapiens, UniProt O75582)	82%
Serine/threonine-protein kinase Sgk2 (SGK2, Homo sapiens, UniProt Q9HBY8)	95%
Mitogen-activated protein kinase 6 (MAPK6, Homo sapiens, UniProt Q16659)	100%
Serine/threonine-protein kinase ULK1 (ULK1, Homo sapiens, UniProt O75385)	100%
Serine/threonine-protein kinase 38 (STK38, Homo sapiens, UniProt Q15208)	93%
Serine/threonine-protein kinase 17B (STK17B, Homo sapiens, UniProt O94768)	100%
Phosphatidylinositol 4,5-bisphosphate 3-kinase catalytic subunit delta isoform (PIK3CD, Homo sapiens, UniProt O00329)	100%
Mitogen-activated protein kinase kinase kinase kinase 2 (MAP4K2, Homo sapiens, UniProt Q12851)	100%
Beta-adrenergic receptor kinase 1 (GRK2, Homo sapiens, UniProt P25098)	100%
Casein kinase I isoform delta (CSNK1D, Homo sapiens, UniProt P48730)	100%
MAP kinase-activated protein kinase 2 (MAPKAPK2, Homo sapiens, UniProt P49137)	100%
Wee1-like protein kinase (WEE1, Homo sapiens, UniProt P30291)	97%
Calcium/calmodulin-dependent protein kinase kinase 2 (CAMKK2, Homo sapiens, UniProt Q96RR4)	100%
G protein-coupled receptor kinase 3 (GRK3, Homo sapiens, UniProt P35626)	100%
Vascular endothelial growth factor receptor 3 (FLT4, Homo sapiens, UniProt P35916)	100%
Tyrosine-protein kinase Fer (FER, Homo sapiens, UniProt P16591)	98%
Dual specificity mitogen-activated protein kinase kinase 3 (MAP2K3, Homo sapiens, UniProt P46734)	100%
Calcium/calmodulin-dependent protein kinase kinase 1 (CAMKK1, Homo sapiens, UniProt Q8N5S9)	100%
Protein kinase C delta type (PRKCD, Homo sapiens, UniProt Q05655)	100%
Myosin-IIIa (MYO3A, Homo sapiens, UniProt Q8NEV4)	98%
Peripheral plasma membrane protein CASK (CASK, Homo sapiens, UniProt O14936)	100%
Dual specificity protein kinase CLK2 (CLK2, Homo sapiens, UniProt P49760)	100%
Discoidin domain-containing receptor 2 (DDR2, Homo sapiens, UniProt Q16832)	100%
Serine/threonine-protein kinase 16 (STK16, Homo sapiens, UniProt O75716)	100%
RAC-gamma serine/threonine-protein kinase (AKT3, Homo sapiens, UniProt Q9Y243)	97%

Study 2
Target: DNA polymerase theta, ATPase domain (POLQ, Homo sapiens, UniProt O75417)
Sequence of UniProt O75417 (whole entry, unmodified, looked up): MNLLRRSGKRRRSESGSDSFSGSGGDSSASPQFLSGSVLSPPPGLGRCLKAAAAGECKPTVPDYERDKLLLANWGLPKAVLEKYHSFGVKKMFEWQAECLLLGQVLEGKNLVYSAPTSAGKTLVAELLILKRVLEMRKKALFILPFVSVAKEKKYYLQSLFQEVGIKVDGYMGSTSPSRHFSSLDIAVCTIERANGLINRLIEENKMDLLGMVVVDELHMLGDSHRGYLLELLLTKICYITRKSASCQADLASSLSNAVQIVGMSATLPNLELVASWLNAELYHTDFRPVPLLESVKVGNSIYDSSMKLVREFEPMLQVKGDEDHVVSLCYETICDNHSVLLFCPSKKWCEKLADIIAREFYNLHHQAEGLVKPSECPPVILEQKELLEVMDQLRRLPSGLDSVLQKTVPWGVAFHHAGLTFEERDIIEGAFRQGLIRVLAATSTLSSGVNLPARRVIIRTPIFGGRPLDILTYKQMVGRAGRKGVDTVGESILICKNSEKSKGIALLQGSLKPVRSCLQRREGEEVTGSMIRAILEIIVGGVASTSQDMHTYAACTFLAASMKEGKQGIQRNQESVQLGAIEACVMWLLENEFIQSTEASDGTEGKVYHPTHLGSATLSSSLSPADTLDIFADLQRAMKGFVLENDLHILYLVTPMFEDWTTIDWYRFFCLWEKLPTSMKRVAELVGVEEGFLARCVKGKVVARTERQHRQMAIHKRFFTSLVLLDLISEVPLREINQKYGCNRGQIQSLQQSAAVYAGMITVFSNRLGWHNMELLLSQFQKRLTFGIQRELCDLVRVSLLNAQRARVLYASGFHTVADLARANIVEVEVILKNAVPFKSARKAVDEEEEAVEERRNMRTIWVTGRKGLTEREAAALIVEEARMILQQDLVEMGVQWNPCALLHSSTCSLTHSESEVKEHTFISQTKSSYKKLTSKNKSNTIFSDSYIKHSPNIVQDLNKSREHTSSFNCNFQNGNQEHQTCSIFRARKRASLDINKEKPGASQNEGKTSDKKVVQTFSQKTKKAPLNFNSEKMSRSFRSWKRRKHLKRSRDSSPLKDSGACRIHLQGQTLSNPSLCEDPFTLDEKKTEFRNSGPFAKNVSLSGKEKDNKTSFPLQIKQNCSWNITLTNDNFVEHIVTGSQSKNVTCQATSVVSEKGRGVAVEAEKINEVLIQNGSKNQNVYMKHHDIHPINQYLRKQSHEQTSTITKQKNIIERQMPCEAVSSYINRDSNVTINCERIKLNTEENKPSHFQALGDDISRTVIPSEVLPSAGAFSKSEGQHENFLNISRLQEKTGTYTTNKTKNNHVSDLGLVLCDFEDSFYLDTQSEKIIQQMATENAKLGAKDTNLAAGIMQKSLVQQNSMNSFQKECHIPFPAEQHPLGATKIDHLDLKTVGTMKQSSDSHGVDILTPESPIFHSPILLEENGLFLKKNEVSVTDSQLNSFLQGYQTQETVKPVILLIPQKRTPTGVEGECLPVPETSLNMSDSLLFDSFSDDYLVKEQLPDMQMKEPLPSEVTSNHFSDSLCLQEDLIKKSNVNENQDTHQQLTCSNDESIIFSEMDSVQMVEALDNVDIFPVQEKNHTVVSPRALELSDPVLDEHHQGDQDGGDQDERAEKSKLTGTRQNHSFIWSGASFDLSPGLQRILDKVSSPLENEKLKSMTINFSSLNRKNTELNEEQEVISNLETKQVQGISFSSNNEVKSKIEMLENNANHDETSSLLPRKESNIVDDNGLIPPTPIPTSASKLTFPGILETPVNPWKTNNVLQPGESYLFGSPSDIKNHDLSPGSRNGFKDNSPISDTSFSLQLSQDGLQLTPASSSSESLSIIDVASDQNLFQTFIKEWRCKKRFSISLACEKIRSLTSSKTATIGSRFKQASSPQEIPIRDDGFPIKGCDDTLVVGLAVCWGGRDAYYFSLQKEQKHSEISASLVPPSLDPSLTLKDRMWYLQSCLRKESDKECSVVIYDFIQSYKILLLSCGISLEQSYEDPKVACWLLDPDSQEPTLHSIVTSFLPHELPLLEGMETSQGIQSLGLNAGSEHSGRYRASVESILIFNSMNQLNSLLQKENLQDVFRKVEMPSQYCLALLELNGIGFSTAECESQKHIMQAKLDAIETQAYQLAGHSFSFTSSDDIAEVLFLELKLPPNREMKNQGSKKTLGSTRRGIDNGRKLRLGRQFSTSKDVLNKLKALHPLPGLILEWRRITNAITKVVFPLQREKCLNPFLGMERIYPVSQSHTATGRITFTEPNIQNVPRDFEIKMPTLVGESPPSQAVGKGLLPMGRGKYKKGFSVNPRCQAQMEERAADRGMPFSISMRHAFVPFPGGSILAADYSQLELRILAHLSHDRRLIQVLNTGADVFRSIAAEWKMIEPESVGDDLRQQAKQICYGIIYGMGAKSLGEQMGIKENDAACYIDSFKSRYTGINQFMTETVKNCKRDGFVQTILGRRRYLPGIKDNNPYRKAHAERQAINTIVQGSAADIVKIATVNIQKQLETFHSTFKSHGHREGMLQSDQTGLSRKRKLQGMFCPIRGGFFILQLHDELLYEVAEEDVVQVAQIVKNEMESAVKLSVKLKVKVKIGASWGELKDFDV
Effect on: enzyme activity
Mode: inhibitor
Tested at: 77 µM
Baseline: untreated
SMILES	remaining activity
Nc1ccc(S(=O)(=O)Nc2ccccn2)cc1	98.8%
COc1ccc(CCc2nc3cc(-c4c(C)noc4C)ccc3n2C[C@H](C)N2CCOCC2)cc1Cl	101%
COc1ccc([C@@H]2CC(=O)c3c(O)cc(O)cc3O2)cc1O	94.1% and 98.9%
NC(CO)(CO)CO	96.2%
NC[C@H]1CC[C@H](C(=O)O)CC1	105%
CCOc1nc2cccc(C(=O)O)c2n1Cc1ccc(-c2ccccc2-c2nnn[nH]2)cc1	86.3%
NC1(C(=O)O)CC1	84.3%
Cc1cc(C)c2c(c1)[C@@H](N(Cc1cc(C(F)(F)F)cc(C(F)(F)F)c1)c1nnn(C)n1)CCCN2C[C@H]1CC[C@H](C(=O)O)CC1	98.7%
CC[C@H]1CN2CCc3cc(OC)c(OC)cc3[C@@H]2C[C@@H]1C[C@H]1NCCc2cc(OC)c(OC)cc21	100% and 103%
CN(C(=O)C(Cl)Cl)c1ccc(OC(=O)c2ccco2)cc1	100%
Cc1cccc(CC(=O)N2CCc3c2ccc(-c2cn(C)c4ncnc(N)c24)c3F)n1	86.3%
CCN(CC)C(=O)c1ccc(Nc2nc(OCC3CCCCC3)c3[nH]cnc3n2)cc1	113%
Cc1nnc(C(C)C)n1[C@@H]1C[C@H]2CC[C@@H](C1)N2CC[C@H](NC(=O)C1CCC(F)(F)CC1)c1ccccc1	71.4%
CNC(=O)c1ccc(C)c(-n2c(C)cc(OCc3ccc(F)cc3F)c(Br)c2=O)c1	95.4%

Study 3
Target: Calcium/calmodulin-dependent protein kinase type II subunit alpha (CAMK2A, Homo sapiens, UniProt Q9UQM7)
Sequence of UniProt Q9UQM7 (whole entry, looked up): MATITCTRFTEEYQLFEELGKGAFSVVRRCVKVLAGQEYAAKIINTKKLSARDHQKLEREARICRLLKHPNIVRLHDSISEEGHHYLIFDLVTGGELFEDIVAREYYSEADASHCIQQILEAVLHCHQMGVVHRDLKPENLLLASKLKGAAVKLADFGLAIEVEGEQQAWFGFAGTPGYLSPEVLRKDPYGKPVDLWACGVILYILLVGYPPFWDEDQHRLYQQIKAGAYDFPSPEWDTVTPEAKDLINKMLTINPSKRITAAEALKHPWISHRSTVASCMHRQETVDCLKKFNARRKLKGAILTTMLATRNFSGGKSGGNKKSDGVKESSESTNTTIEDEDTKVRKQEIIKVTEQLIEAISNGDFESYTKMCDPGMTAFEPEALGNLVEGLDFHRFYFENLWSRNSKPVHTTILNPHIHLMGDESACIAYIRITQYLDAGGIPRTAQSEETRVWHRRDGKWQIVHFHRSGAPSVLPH
Effect on: enzyme activity
Mode: inhibitor
Tested at: 10 µM
Compound	inhibition [%]
CC(C)(C)CC(C)(C)c1ccc(O)c(Cc2ccc(Cl)cc2Cl)c1	-4
CCCCCCCCCC(=O)OCC(COC(=O)CCCCCCCCC)OC(=O)CCCCCCCCC	14
C[C@@H]1C[C@H]2[C@@H]3C[C@H](F)C4=CC(=O)C=C[C@]4(C)[C@@]3(F)[C@@H](O)C[C@]2(C)[C@@]1(OC(=O)c1ccco1)C(=O)SCF	2
COc1cc(O)c2c(=O)c(O[C@@H]3O[C@H](CO)[C@@H](O)[C@H](O)[C@H]3O)c(-c3ccc(O[C@@H]4O[C@H](CO)[C@@H](O)[C@H](O)[C@H]4O)cc3)oc2c1	-44
CCCOc1ccc(S(=O)(=O)NCCC2CCCN2C)cc1-c1nc2c(CCC)nn(C)c2c(=O)[nH]1 (centres unmarked)	-10
Cc1cc(O)cc(O[C@@H]2O[C@H](CO)[C@@H](O)[C@H](O)[C@H]2O)c1	-66
OCCOc1ccc(/C(=C(/CCCl)c2ccccc2)c2ccccc2)cc1	4
COc1c(O[C@@H]2O[C@H](C(=O)O)[C@@H](O)[C@H](O)[C@H]2O)cc2oc(-c3ccccc3)cc(=O)c2c1O	-4
CCC(CC)COC(=O)[C@H](C)N[P@](=O)(OC[C@H]1O[C@@](C#N)(c2ccc3c(N)ncnn23)[C@H](O)[C@@H]1O)Oc1ccccc1	-2

Study 4
Target: Ephrin type-A receptor 8 (EPHA8, Homo sapiens, UniProt P29322)
Sequence of UniProt P29322 (whole entry, looked up): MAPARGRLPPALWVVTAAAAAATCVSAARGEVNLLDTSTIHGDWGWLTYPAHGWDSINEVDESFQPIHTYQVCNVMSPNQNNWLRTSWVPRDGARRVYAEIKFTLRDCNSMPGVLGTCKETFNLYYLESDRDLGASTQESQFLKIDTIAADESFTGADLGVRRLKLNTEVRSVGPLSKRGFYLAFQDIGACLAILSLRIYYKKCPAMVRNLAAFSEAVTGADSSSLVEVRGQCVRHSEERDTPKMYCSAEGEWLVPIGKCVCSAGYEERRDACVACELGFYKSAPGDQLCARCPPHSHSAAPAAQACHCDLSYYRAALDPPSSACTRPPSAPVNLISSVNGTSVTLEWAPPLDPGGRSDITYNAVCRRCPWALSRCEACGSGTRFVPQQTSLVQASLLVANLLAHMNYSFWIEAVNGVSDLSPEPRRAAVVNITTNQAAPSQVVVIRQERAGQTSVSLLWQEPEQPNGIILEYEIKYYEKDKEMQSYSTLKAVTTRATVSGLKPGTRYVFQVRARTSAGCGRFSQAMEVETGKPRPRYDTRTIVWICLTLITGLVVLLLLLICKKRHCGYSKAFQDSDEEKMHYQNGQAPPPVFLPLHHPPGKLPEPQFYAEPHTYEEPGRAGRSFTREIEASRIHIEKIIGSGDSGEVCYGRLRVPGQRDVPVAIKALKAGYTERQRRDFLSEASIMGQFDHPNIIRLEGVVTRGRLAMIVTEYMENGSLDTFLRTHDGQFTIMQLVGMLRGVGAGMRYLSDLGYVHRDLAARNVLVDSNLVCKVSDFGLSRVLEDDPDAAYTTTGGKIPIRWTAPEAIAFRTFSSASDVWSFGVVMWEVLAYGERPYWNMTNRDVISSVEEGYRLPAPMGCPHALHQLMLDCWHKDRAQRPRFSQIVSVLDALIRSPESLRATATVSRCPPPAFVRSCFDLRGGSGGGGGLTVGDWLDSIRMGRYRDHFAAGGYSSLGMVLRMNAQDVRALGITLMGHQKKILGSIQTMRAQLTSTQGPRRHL
Effect on: enzyme activity
Mode: inhibitor
Tested at: 0.5 µM
Baseline: control
Structure (SMILES)	remaining activity
O=C1NC(=O)c2c1c1c3ccccc3[nH]c1n1cncc21	97.5%
COc1cccc(-c2cc(=O)c3ccccc3o2)c1N	96.3%
c1ccc2c(-c3ccncc3)c[nH]c2c1	101%
O=C(c1cc2cc(O)ccc2[nH]1)c1cc2cc(O)ccc2[nH]1	92.9%
O=C1NC(=O)c2c1c1c3ccccc3[nH]c1c1[nH]c3cc(Br)ccc3c21	102%
O=Nc1c(-c2c(O)[nH]c3cc(Br)ccc23)[nH]c2ccccc12	97.6%
CN1CCN(c2ccc3nc(-c4c(N)c5c(F)cccc5[nH]c4=O)[nH]c3c2)CC1	105%
Cc1cc(Nc2cc(N3CCN(C)CC3)nc(Sc3ccc(NC(=O)C4CC4)cc3)n2)[nH]n1	77.1%
O=C1Cc2c([nH]c3ccc(Br)cc23)-c2ccccc2N1	101%
Oc1cccc(-c2nc(N3CCOCC3)c3oc4ncccc4c3n2)c1	93.9%
Cc1ccc(S(=O)(=O)/C=C/C#N)cc1	96.8%
O=C1Nc2ccc(Br)cc2/C1=C/c1cc2c([nH]1)CCCC2	94.5%
CCCNC(=O)Nc1ccc(Oc2ncnc3cc(OC)c(OC)cc23)cc1Cl	105%
COc1ccc2c(c1)c(C1=C(c3c[nH]c4ccccc34)C(=O)NC1=O)cn2CCCN(C)C	102%
CN(C)S(=O)(=O)c1ccc2c(c1)/C(=C/c1cc3c([nH]1)CCCC3)C(=O)N2	100%
c1ccc(-c2n[nH]c3c2oc2ccccc23)cc1	102%
CCCCc1c(-c2ccc(OC)cc2)[nH]c2nccnc12	103%
O=C1Nc2ccccc2/C1=C\c1c(Cl)[nH]c2ccccc12	103%
N#Cc1cnc2cnc(NCc3cccnc3)cc2c1Nc1ccc(F)c(Cl)c1	91.2%
O=c1cc(N2CCOCC2)oc2c(-c3ccccc3)cccc12	103%

Excerpt of the above (study 1):
target	remaining binding
Casein kinase I isoform delta (CSNK1D, Homo sapiens, UniProt P48730)	100%
MAP kinase-activated protein kinase 2 (MAPKAPK2, Homo sapiens, UniProt P49137)	100%
Wee1-like protein kinase (WEE1, Homo sapiens, UniProt P30291)	97%
Calcium/calmodulin-dependent protein kinase kinase 2 (CAMKK2, Homo sapiens, UniProt Q96RR4)	100%
G protein-coupled receptor kinase 3 (GRK3, Homo sapiens, UniProt P35626)	100%
Vascular endothelial growth factor receptor 3 (FLT4, Homo sapiens, UniProt P35916)	100%
Tyrosine-protein kinase Fer (FER, Homo sapiens, UniProt P16591)	98%
Dual specificity mitogen-activated protein kinase kinase 3 (MAP2K3, Homo sapiens, UniProt P46734)	100%
Calcium/calmodulin-dependent protein kinase kinase 1 (CAMKK1, Homo sapiens, UniProt Q8N5S9)	100%
Protein kinase C delta type (PRKCD, Homo sapiens, UniProt Q05655)	100%
Myosin-IIIa (MYO3A, Homo sapiens, UniProt Q8NEV4)	98%
